Experimental data of several laboratories.
Lines come from different studies, so protocols differ. “And” joins repeats or separate records; there may be more than shown. Numbers after ± are the reported error.
GBA1 R534H: Lysosomal acid glucosylceramidase (GBA1, Homo sapiens, UniProt P04062, R534H)
Chain of UniProt P04062 (whole entry, unmodified, looked up): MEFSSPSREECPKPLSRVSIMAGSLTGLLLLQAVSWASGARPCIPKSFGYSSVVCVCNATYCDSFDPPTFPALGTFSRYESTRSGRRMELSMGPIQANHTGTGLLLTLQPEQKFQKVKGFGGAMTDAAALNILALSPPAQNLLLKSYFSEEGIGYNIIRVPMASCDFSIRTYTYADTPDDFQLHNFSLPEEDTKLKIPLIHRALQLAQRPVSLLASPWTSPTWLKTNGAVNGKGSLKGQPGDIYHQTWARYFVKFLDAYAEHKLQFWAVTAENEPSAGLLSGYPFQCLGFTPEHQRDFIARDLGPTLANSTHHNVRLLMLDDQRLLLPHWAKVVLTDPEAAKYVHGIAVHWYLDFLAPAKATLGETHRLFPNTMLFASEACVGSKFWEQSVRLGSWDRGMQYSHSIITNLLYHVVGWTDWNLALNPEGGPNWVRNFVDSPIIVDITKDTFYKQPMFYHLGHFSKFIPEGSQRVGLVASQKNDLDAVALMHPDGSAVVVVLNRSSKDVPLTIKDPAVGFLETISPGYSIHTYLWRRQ
clpP: ATP-dependent Clp protease proteolytic subunit (clpP, Escherichia coli, UniProt P0A6G7)
Chain of UniProt P0A6G7 (whole entry, looked up): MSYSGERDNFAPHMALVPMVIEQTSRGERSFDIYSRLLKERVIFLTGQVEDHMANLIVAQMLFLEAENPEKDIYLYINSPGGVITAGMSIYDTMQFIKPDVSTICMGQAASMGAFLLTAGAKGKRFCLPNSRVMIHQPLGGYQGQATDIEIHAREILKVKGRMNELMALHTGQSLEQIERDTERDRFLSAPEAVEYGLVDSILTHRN
Peptidyl-prolyl cis-trans isomerase FKBP1B: Peptidyl-prolyl cis-trans isomerase FKBP1B (Homo sapiens, UniProt P68106)
Chain of UniProt P68106 (whole entry, looked up): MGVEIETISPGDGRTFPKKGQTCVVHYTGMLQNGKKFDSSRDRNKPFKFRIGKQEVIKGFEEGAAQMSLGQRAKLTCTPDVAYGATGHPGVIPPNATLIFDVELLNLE
GAP50: Glideosome-associated protein 50 (GAP50, Plasmodium falciparum, UniProt Q8I2X3)
Chain of UniProt Q8I2X3 (whole entry, looked up): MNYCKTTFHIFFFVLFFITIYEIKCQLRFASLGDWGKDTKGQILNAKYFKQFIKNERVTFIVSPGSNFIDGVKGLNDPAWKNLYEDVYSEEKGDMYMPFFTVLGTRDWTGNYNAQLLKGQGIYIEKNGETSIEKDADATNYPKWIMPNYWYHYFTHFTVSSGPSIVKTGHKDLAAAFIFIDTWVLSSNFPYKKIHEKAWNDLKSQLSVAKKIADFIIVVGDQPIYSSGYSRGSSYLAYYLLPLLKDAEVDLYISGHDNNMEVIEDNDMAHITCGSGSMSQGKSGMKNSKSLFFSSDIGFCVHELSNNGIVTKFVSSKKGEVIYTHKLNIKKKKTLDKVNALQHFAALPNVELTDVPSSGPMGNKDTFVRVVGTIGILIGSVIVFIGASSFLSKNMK
bglA: bglA (Thermotoga maritima, UniProt Q08638)
Chain of UniProt Q08638 (whole entry, looked up): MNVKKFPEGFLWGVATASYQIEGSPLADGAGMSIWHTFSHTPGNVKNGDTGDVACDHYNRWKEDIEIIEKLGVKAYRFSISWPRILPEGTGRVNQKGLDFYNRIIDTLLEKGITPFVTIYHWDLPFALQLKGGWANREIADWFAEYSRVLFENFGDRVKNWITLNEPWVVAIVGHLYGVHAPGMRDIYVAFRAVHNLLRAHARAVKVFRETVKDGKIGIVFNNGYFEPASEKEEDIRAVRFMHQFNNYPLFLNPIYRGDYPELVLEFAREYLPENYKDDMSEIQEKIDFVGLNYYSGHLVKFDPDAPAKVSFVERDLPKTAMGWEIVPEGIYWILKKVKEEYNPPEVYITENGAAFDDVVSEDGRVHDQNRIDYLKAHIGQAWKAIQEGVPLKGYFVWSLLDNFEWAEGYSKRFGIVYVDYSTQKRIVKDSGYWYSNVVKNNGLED
BRD9: Bromodomain-containing protein 9 (BRD9, Homo sapiens, UniProt Q9H8M2)
Chain of UniProt Q9SZU7 (whole entry, unmodified, looked up): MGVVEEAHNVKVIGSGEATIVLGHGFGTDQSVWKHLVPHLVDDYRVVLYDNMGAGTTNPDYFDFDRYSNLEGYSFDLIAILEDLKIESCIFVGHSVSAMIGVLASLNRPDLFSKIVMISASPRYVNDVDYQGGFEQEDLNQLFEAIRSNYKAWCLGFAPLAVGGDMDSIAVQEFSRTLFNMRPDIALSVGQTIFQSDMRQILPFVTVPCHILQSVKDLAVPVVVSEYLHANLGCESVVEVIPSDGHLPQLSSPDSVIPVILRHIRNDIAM
Chain of UniProt Q9H8M2 (whole entry, looked up): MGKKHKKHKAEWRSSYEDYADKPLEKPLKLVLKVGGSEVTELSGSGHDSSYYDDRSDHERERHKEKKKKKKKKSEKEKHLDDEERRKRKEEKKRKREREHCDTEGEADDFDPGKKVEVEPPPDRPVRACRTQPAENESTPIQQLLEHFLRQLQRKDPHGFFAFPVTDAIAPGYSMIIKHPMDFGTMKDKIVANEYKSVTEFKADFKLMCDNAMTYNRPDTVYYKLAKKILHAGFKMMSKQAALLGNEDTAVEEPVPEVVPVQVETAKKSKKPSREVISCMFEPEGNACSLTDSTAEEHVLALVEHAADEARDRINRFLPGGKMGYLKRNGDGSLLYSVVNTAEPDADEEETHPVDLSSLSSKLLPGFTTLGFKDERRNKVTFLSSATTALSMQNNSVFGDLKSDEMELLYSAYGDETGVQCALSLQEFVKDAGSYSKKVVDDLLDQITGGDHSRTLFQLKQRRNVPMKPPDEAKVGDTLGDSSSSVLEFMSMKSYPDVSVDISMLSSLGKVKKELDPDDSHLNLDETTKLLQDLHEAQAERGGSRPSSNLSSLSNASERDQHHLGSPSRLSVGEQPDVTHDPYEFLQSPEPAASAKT
Chain of UniProt P08191 (whole entry, looked up): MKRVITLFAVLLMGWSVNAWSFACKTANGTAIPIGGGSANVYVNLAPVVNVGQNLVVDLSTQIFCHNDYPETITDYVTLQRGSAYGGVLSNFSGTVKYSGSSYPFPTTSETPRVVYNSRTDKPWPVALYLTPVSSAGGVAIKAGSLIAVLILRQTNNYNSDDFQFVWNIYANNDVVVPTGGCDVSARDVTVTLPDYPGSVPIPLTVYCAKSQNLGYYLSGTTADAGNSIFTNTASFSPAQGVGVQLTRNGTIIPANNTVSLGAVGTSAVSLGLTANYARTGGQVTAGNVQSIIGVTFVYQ
Chain of UniProt P11086 (whole entry, looked up): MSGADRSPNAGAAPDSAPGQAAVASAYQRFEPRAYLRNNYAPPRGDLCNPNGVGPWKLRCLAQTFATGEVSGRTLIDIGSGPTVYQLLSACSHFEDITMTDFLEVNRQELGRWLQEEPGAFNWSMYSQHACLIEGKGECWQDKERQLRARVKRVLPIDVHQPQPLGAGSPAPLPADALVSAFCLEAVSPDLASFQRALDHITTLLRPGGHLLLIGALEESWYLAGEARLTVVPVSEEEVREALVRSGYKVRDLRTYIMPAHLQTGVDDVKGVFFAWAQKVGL
Chain of UniProt Q9UBN7 (whole entry, looked up): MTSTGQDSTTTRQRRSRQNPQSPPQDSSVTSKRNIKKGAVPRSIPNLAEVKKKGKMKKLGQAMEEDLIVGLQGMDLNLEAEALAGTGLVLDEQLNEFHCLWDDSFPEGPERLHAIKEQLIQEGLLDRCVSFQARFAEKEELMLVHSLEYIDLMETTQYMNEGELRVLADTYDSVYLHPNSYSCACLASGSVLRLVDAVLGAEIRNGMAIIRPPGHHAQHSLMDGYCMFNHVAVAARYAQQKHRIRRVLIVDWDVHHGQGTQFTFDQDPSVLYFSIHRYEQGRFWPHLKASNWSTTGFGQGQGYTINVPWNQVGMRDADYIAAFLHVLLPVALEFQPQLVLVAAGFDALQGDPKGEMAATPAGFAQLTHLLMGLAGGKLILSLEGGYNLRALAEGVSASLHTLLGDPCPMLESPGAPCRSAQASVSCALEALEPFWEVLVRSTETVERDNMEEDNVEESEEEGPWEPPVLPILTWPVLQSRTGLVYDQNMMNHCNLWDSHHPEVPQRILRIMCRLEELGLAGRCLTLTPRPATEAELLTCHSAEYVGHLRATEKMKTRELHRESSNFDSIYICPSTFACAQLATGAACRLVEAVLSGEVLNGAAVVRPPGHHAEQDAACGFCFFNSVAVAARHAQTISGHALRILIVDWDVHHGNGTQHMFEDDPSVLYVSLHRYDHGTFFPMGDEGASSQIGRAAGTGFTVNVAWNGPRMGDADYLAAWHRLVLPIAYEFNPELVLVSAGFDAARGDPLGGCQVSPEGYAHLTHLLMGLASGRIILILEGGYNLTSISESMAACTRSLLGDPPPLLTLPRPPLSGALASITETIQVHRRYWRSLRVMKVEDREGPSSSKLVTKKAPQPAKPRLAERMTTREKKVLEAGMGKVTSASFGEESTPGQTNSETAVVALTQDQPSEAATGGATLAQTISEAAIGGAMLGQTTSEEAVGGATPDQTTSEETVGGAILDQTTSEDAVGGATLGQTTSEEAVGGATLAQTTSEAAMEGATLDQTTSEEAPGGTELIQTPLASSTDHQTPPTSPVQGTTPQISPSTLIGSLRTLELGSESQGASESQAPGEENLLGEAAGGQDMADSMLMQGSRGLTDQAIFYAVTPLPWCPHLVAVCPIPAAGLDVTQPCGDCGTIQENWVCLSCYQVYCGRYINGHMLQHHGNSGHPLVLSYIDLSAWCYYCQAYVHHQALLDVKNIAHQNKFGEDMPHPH
Chain of UniProt Q8WUJ1 (whole entry, looked up): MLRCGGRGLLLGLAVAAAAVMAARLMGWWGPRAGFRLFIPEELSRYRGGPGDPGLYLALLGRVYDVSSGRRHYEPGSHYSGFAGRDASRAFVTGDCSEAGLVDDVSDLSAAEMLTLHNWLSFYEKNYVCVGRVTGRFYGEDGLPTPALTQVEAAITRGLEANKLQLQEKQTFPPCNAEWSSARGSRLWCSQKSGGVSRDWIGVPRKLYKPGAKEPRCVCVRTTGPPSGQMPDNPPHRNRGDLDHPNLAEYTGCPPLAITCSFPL

SMILES	target	test	test system	setting	endpoint	result
OC[C@H]1[C@@H](O)[C@H](O)[C@@H](O)CN1CCCCCOCc1ccsc1	GBA1 R534H	inhibitor, 4MU-β-D-glucopyranoside	–	with: 4MU-β-D-glucopyranoside	IC50	328 µM
CCCCC=CC(=O)NC(Cc1cc(F)cc(F)c1)C(=O)NC1COC(=O)C2CCCN2C(=O)C(C)NC(=O)C(C)N(C)C(=O)C2CCCN2C1=O (centres unmarked)	clpP	peptidase activity, activator	–	30 °C, with: fluorogenic decapeptide 15 µM	Kd	7.5 ± 0.34 µM
CCc1nc2cc3ccccc3cc2cc1C(=O)N1CCC[C@H]1C(=O)N[C@@H](CCC/C=C/CCC[C@H](NC(=O)[C@@H]1CCCN1C(=O)c1cc2cc3ccccc3cc2nc1CC)C(=O)N[C@@H](CCCCN)C(=O)NCCCN)C(=O)N[C@@H](CCCCN)C(=O)NCCCN	(CUG)4 RNA	SPR	–	–	Kd	0.069 µM
CCCC/C=C/C(=O)N[C@@H](Cc1cc(F)cc(F)c1)C(=O)N[C@@H]1C(=O)N2CCC[C@H]2C(=O)N2CCCC[C@H]2C(=O)N[C@@H](C)C(=O)N2CCC[C@H]2C(=O)O[C@H]1C	clpP	peptidase activity, activator	–	30 °C, with: fluorogenic decapeptide 15 µM	Kd	1.3 ± 0.067 µM
CCc1nc2cc3ccccc3cc2cc1C(=O)N1CCC[C@H]1C(=O)N[C@@H](C/C=C/C[C@H](NC(=O)[C@@H]1CCCN1C(=O)c1cc2cc3ccccc3cc2nc1CC)C(=O)N[C@@H](CCCCN)C(=O)NCCCN)C(=O)N[C@@H](CCCCN)C(=O)NCCCN	(CUG)4 RNA	SPR	–	–	Kd	0.028 µM
C=C[C@H]1CN(Cc2ccccn2)C(=O)[C@@H]2CCC[C@H]1N2[S@@+]([O-])c1cc(Cl)cc(Cl)c1	Peptidyl-prolyl cis-trans isomerase FKBP1B	ligand displacement, FP	–	–	Kd	0.394 µM
CC(=O)c1cnc2ccc(-c3cc(Cl)c(O)c(Cl)c3)nc2c1N[C@H]1CC[C@H](CN(C)C)CC1	Receptor-like protein kinase ANXUR1 (ANX1, Arabidopsis thaliana, UniProt Q9SR05)	binding, SPR	–	–	Kd	51.6 µM
Cn1ncc2cc(-c3cncc(Cl)c3N3CCC4(CCNC4=O)CC3)ccc21	Neuferricin (CYB5D2, Homo sapiens, UniProt Q8WUJ1)	SILAC displacement	LS174T-L5 cell lysate	–	Kd	> 12.6 µM
C=C[C@H]1CN(Cc2ccccn2)C(=O)[C@@H]2CCC[C@H]1N2Sc1cc(Cl)cc(Cl)c1	Peptidyl-prolyl cis-trans isomerase FKBP1B	ligand displacement, FP	–	–	Kd	1.36 µM
COc1ccc(C(=O)NO)cc1NC(=O)c1ccc(-c2ccccc2)cc1	Protein deacetylase HDAC6 (HDAC6, Homo sapiens, UniProt Q9UBN7)	inhibitor, competition pulldown	SW620 and MV4-11 lysate	1 h	Kd	> 30.2 µM
C=CC1CN(Cc2ccccn2)C(=O)C2CCCC1N2S(=O)(=NC1C=CCCC1)c1cc(Cl)cc(Cl)c1 (mixture of isomers)	Peptidyl-prolyl cis-trans isomerase FKBP1B	competitive fluorescence polarization	–	protein 10 nM, with: tracer 1 nM	Kd	4.03 ± 0.95 µM
Nc1ncnc2c1ncn2C1OC(CN(CCCC2CNCc3c2ccc(Cl)c3Cl)CCC(N)C(=O)O)C(O)C1O (mixture of isomers)	Phenylethanolamine N-methyltransferase (PNMT, Homo sapiens, UniProt P11086)	ITC	–	pH 8.0, 25 °C, first site, without SAH	Kd	0.02 ± 0.001 µM
OC[C@H]1[C@@H](O)[C@H](O)[C@@H](O)CN1CCCCCOCc1ccc(-c2ccccc2)cc1F	GBA1 R534H	inhibitor, 4MU-β-D-glucopyranoside	–	with: 4MU-β-D-glucopyranoside	IC50	8 µM
Cc1cc(C(c2ccc(Cl)cc2)c2ccc(Cl)cc2)c2nccc(C)c2c1	GAP50	binding, surface plasmon resonance	–	1:1 binding model	Kd	1.91 µM
CCCCCCCO[C@H]1CO[C@H](CO)[C@@H](O)[C@H](O)[C@@H]1O	Type 1 fimbrin D-mannose specific adhesin, lectin domain (fimH, Escherichia coli K-12, UniProt P08191)	binding, isothermal titration calorimetry	–	37 °C, individual titrations	Kd	0.751 µM and 0.575 µM
OC[C@@H]1[C@@H](O)[C@H](O)[C@@H](O)c2nccn21	bglA	binding, ITC	–	pH 5.8	Kd	0.055 µM

SMILES	target	test	test system	setting	endpoint	result
Cc1c[nH]c2nccc(-c3ccc(C(=O)N[C@@H]4c5c(F)cc(C(F)F)cc5C[C@@H]4O)cn3)c12	Tyrosine-protein kinase JAK3, JH1 (JAK3, Homo sapiens, UniProt P52333)	binding, competition with immobilised ligand	–	–	Kd	0.05 µM
O=C1[C@@H]2CCC[C@H]([C@@H](C(O)CO)CN1Cc1ccccn1)N2S(=O)(=O)c1cc(Cl)cc(Cl)c1 (some centres unmarked)	Peptidyl-prolyl cis-trans isomerase FKBP1B	ligand displacement, FP	–	–	Kd	0.0032 µM
CC(=O)NCC1CCCCN1c1nc(N2CCN(c3nnc[nH]3)CC2)nc(N2CC3C(CCOc4cc(-c5scnc5C)ccc4CNC(=O)[C@@H]4C[C@@H](O)CN4C(=O)[C@@H](NC(=O)C4(F)CC4)C(C)(C)C)C3C2)n1 (some centres unmarked)	BRD9	binding, SPR	–	–	Kd	> 20 µM
OC[C@H]1c2[nH]cnc2[C@H](O)[C@@H](O)[C@@H]1O	bglA	binding, ITC	–	pH 5.8	Kd	36.6 µM
Cc1cccc2c1N(C(=O)n1ccnn1)CC2	KAI2 (Arabidopsis thaliana, UniProt Q9SZU7, D217E)	ITC	–	D217E mutant	Kd	1120 µM and 1250 µM and 1140 µM
CCOC(=O)c1ccc2c(c1)C1CC(C)(N2)c2c(C)nc3ccc(C(=O)OCC)cc3c21 (single isomer, unassigned)	GAP50	binding, surface plasmon resonance	–	1:1 binding model	Kd	202 µM
Cc1ncc(CNc2nc(N3CC(CCOc4cc(-c5scnc5C)ccc4CNC(=O)[C@@H]4C[C@@H](O)CN4C(=O)[C@@H](NC(=O)C4(F)CC4)C(C)(C)C)C3)nc(N3CCC[C@H]3Cn3ccnn3)n2)c(N)n1	BRD9	binding, SPR	–	–	Kd	4.4 µM
O=c1c(Oc2ccccc2)c(C(F)(F)F)oc2c(O)c(O)ccc12	Cullin-1 (Homo sapiens, UniProt Q13616)	binding, MST	–	–	Kd	4.46 µM
Cc1ncsc1-c1ccc(CNC(=O)[C@@H]2C[C@@H](O)CN2C(=O)[C@@H](NC(=O)C2(F)CC2)C(C)(C)C)c(OCCC2CCN(c3nc(N(C)CCNC(=O)C(C)C)nc(N4CCn5nnc(CO)c5C4)n3)CC2)c1	BRD9	binding, SPR	–	–	Kd	7 µM
Cc1nc2ccc(F)cc2c2c1C1(C)CC2c2cc(F)ccc2N1 (centres unmarked)	GAP50	binding, surface plasmon resonance	–	1:1 binding model	Kd	12.5 µM
CC(=O)NCCN(c1nc(NCc2n[nH]c3c2CCCC3)nc(N2CC3C(CCOc4cc(-c5scnc5C)ccc4CNC(=O)[C@@H]4C[C@@H](O)CN4C(=O)[C@@H](NC(=O)C4(F)CC4)C(C)(C)C)C3C2)n1)C(C)C (some centres unmarked)	BRD9	binding, SPR	–	–	Kd	> 20 µM
CCOC(=O)CCCc1cccc2c(-c3ccc(Oc4ccccc4)cc3)ccnc12	GAP50	binding, surface plasmon resonance	–	1:1 binding model	Kd	47.4 µM
CC(=O)NCCN(c1nc(N2CC(Oc3ccccc3)C2)nc(N2CC3C(CCOc4cc(-c5scnc5C)ccc4CNC(=O)[C@@H]4C[C@@H](O)CN4C(=O)[C@@H](NC(=O)C4(F)CC4)C(C)(C)C)C3C2)n1)C(C)C (some centres unmarked)	BRD9	binding, SPR	–	–	Kd	> 20 µM
C=CC(=O)N1C[C@H](C)N(c2nc(OC[C@@]34CCCN3C[C@H](F)C4)nc3c(F)c(-c4ccc(F)c5sc(N)c(C#N)c45)c(C(F)(F)F)cc23)C[C@H]1C	GTPase KRas, GDP-bound (KRAS, Homo sapiens, UniProt P01116, Q61R)	SPR	–	–	Kd	0.000925 ± 0.00019 µM
CC(=O)NCC1CCCCN1c1nc(NCC2Cc3ccccc3O2)nc(N2CC3C(CCOc4cc(-c5scnc5C)ccc4CNC(=O)C4CC(O)CN4C(=O)C(NC(=O)C4(F)CC4)C(C)(C)C)C3C2)n1 (centres unmarked)	BRD9	binding, SPR	–	–	Kd	> 20 µM
CCCC/C=C/C(=O)N[C@@H](Cc1cc(F)cc(F)c1)C(=O)N[C@H]1COC(=O)[C@@H]2CCCN2C(=O)[C@H](C)NC(=O)[C@@H]2CCCCN2C(=O)[C@@H]2CCCN2C1=O	clpP	peptidase activity, activator	–	30 °C, with: fluorogenic decapeptide 15 µM	Kd	2.9 ± 0.077 µM

Excerpt of the above:
SMILES	target	test	test system	setting	endpoint	result
CCOC(=O)c1ccc2c(c1)C1CC(C)(N2)c2c(C)nc3ccc(C(=O)OCC)cc3c21 (single isomer, unassigned)	GAP50	binding, surface plasmon resonance	–	1:1 binding model	Kd	202 µM
Cc1ncc(CNc2nc(N3CC(CCOc4cc(-c5scnc5C)ccc4CNC(=O)[C@@H]4C[C@@H](O)CN4C(=O)[C@@H](NC(=O)C4(F)CC4)C(C)(C)C)C3)nc(N3CCC[C@H]3Cn3ccnn3)n2)c(N)n1	BRD9	binding, SPR	–	–	Kd	4.4 µM
O=c1c(Oc2ccccc2)c(C(F)(F)F)oc2c(O)c(O)ccc12	Cullin-1 (Homo sapiens, UniProt Q13616)	binding, MST	–	–	Kd	4.46 µM
Cc1ncsc1-c1ccc(CNC(=O)[C@@H]2C[C@@H](O)CN2C(=O)[C@@H](NC(=O)C2(F)CC2)C(C)(C)C)c(OCCC2CCN(c3nc(N(C)CCNC(=O)C(C)C)nc(N4CCn5nnc(CO)c5C4)n3)CC2)c1	BRD9	binding, SPR	–	–	Kd	7 µM
